Results collected from several papers.
Parts stem from different laboratories: compare values within a part only.

Set 1 — technique: protein binding microarray; molecule type: double-stranded DNA, one strand shown; medium: in vitro; tested at: not given; relative to: not given; reading: higher = stronger binding
Target: Histone acetyltransferase KAT6A, winged helix 1, GST fusion (KAT6A, Homo sapiens, UniProt Q92794, residues 1-85)
Setting: 8-mer, flanks averaged, mean of 2 arrays, mostly near background
Residues (chain): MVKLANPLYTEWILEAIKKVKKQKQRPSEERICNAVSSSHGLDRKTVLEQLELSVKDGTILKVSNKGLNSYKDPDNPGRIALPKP
Strand | E-score
CTGTGGTA | -0.169
ATAAGTCG | -0.0322
GGCGGACC | 0.365
CCACCTAC | -0.079
CTTAAAAC | -0.146
ACACGGTA | 0.2
CAGTTACC | -0.103
CCTAGAGC | 0.194
ATGACTGC | -0.11
AGAATCAA | -0.0858
CCGCTCAG | 0.306
ACCTAGGT | -0.238
ATCCCAAA | -0.182
AATCCCAC | -0.264
AGAATACA | -0.072
ACACTAGT | -0.0141
CTTCGAGC | 0.0601
GTTAAGGA | -0.211
CGCTGGTA | 0.0534
CTCTACCC | -0.218
CCTGACTA | -0.119
CCACTTTC | -0.0566
CGGCCGCC | 0.47
CCCATCTC | -0.147
CTCTTGTC | -0.177

Set 2 — technique: RNA Bind-n-Seq; molecule type: RNA; medium: in vitro; tested at: 365 nM; relative to: no-protein control; reading: higher = stronger binding
Target: RNA binding protein fox-1 homolog 2, RRM domain, GST-SBP tag (RBFOX2, Homo sapiens, UniProt O43251-10, residues 100-194)
Setting: natural RNA segment, single round, ends assumed
All sequences stand within: GGGAGUUCUACAGUCCGACGAUC … UGGAAUUCUCGGGUGCCAA
Residues (chain): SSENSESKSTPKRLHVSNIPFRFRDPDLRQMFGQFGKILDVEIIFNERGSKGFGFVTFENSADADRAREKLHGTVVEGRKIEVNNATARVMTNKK
Strand | RBNS enrichment (R)
UAGAAACAGAUAGCAUUAAAGUACUUCCUUCCCACUCCUUUCUCUGGCUCUCUCUCCCCCACUUGUUCUGACUUAGGAUAAUGAUCUCUAUUUUGUUUGUUUCUCAAGUG | 0.578
UGGAGCCAGCCUGCUGAGAAGCGUGGUGCAGCUGGGUCUGGGACUUCACUAGAGCUUACUCUGGAGCACCUAUUUUCUGUGCACAUGGGAGUGCUCCACUCCCUAGCAGA | 0.133
AUGGGCAGAAUGGACGGGGUGGGCCACCCAGCCAGGCCACCUCUCCCCAGACCCCUGCUGCCAGCCACCAGCGCCAGCCUCGGGGACCUCCGGCCGUCCCUACCGACAGU | 0.197
UCCUCUCUCACCCAUUUCGCUUCCAAGACCAUUUGUAGUGAGCGGGUGGAUGCUGUGCUACGUGUGAAAUCUGUCUUUGCCAGGCCUGUCUCAGUGAUUAGCUUUUGGUA | 0.588
AAGUCCUAGAAAAUAGAAAAUGUAAUUUUAAACUAUUCCAAUAAAGCUGGAGGAGGAAGGGGAGUUUUGACUAAAGUUCCUUUUGUUUGUUUUAAAUUUUCAUCAAUGUA | 0.647
CUGUCAGUUUUUACCACCUAGUAGGCAAUACCUGUUUUGUCUAAUAUUCAAAGUGCAAUUCGCGUCUAGAUUAUCCACACAAUUUCACUAAUUGAAAAAUAUCAAAUUUA | 0.438
CAUUGACGCUUGAGUGAGCACGCCAGCGUCCUUGUCCUUAUGGGAUGCCUCAGGAUCUUGUUUCUGACACCAGAAUGCAACAGAUGAGAAGCUUUUUGGUGUGAACUGGA | 0.42
UUAUCUGUGAACUGCAGUGCUGUAUCAAAGCAGUCCAGUAACCUGCAGUACUGAGUAUGGUGCUUGCUCUUUCACUUAACUGAUAAGAGGGACAUGCCUACUAGGAGUUU | 0.284
UUACUGCAGUGCAACACUUGCACUUUAAUUUUCCUCCAACUGUCUAAAAUUAGAGCAAAUACAUUGGCAAUACAGCUGCUUUUGCUCUGAGCUACAAUCAUGGCUUUUCA | 0.292
GCACUGGUCUGACUUUAUAAAUUAUUUAAUAAAAUGAACUAUUAUCAAAUAAAACGUAUGAAUCAGUCUUUAUAGUUGUCUUUUAAUAAAACAGGCAUUUGAUAAUGUUA | 1.06
CAGAGUGCACAUGAAAAAUCAGGCAGGGAAUCGAAACGACAGUGCUGGAGGAGACUCAGGAAGCAGAGGCGUCCCUGCCGCUGCCCUUGGCCCUGCAAGCACAUCAUGAC | 0.284
CUGCAGUGCUACAACGUGCUGGAAGAUGUGUCAGAUUUGCUUUAAAGAUGAGAAUCUGGUGUUUCUGUACUUUAUUAUUUUCAAUAAAACUCAAUGUUUUGAACUUUUAA | 0.307

Set 3 — technique: RNA Bind-n-Seq; molecule type: RNA; medium: in vitro; tested at: 200 nM; setting: whole 134-nt RNA, ends assumed; added: 150 mM KCl; relative to: input library; reading: higher = stronger binding
Target: Ras GTPase-activating protein-binding protein 1, full length (G3BP1, Homo sapiens, UniProt Q13283)
Sequence of UniProt Q13283 (whole entry, looked up): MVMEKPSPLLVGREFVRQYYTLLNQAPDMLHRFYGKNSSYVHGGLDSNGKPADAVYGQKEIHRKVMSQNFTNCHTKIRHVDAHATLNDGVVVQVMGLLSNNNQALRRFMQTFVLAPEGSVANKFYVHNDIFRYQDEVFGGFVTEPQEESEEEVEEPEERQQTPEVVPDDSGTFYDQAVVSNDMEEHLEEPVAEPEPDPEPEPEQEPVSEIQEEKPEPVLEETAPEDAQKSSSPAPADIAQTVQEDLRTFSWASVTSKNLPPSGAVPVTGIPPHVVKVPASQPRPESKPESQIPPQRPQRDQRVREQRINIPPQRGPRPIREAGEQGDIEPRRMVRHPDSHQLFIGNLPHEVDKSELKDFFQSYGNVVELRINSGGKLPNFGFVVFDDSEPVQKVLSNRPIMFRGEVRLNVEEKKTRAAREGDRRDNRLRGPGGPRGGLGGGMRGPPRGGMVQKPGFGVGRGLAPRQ
All sequences stand within: GGGAGUUCUACAGUCCGACGAUC … UGGAAUUCUCGGGUGUCAAGG
Strand | log2 enrichment
UCCUGUGCUACACAUCGUAUGUACCGAAUCGGGGUGGGGUUUUUGGGGUUUUUUUGGGGAAAGUAUUAUGUUACGCCGUUCGGAUCUGCA | 0.508
CUGUGCUACACAUCGUAUGUACCGAAUCGGGGAAAAAGGGGUUUUUGGGGAAAAAAAGGGGAAAGUAUUAUGUUACGCCGUUCGGAUCUG | -0.276
CUCAAGUCCUGUGCUACACAUCGUAUGUACCGAAUCGGAAAAAGGAAAGGAGGAAAGUAUUAUGUUACGCCGUUCGGAUCUGCACUUCCA | -0.6
CAAGUCCUGUGCUACACAUCGUAUGUACCGAAUCGGGUGGGUUUGGGUUUUUGGGAAAGUAUUAUGUUACGCCGUUCGGAUCUGCACUUC | 0.338
CUGUGCUACACAUCGUAUGUACCGAAUCGGGAAAAAAAGGGAAAAAAAGGGGAAAAAAAGGGAAAGUAUUAUGUUACGCCGUUCGGAUCU | -0.729
ACCAUGCAGGUGGGCAUCUUAGGGAAGUGGGGCAAGGGGGGGAUAGGGAGGGGGGUAACACUUUGGGAACAGGUGGUCCCAGGUCGUUUC | 1.39
AAGUCCUGUGCUACACAUCGUAUGUACCGAAUCGGGGAAAGGAAAGGGGAAAGGGGAAAGUAUUAUGUUACGCCGUUCGGAUCUGCACUU | 0.225
GCAGGAAGUAAAAACAAAUGGAAAUGCUUCGGAUAGUGGAAAGGGUGGGGGUUGCUAAGGAAAGGGUGGGAUGGGAGUGGGUAAAGAGUU | 0.86
AGUCCUGUGCUACACAUCGUAUGUACCGAAUCGGGAAAAAGGGGAAAAAGGAAAAAGGAAAGUAUUAUGUUACGCCGUUCGGAUCUGCAC | -0.634
UGGCCCUGGUGGCAUGCGGGGAGGAAGAGGUGGCCUCAUGGAUCGUGGUGGUCGCGGUGGAAUGUUCAGAGGUGGCCGUGGUGGAGACAG | 0.0883
GUCCUGUGCUACACAUCGUAUGUACCGAAUCGGGCCCCCCGGGCCCCCCGGCCCCCCGGAAAGUAUUAUGUUACGCCGUUCGGAUCUGCA | -0.25
CUGUGCUACACAUCGUAUGUACCGAAUCGGGGUUUUUGGGGAAAAAGGGGAAAAAAAGGGGAAAGUAUUAUGUUACGCCGUUCGGAUCUG | -0.29
UAACUUUAGAGGAGGAUCUGAUGGAUAUGGCAGUGGACGUGGAUUUGGGGAUGGCUAUAAUGGGUAUGGAGGAGGACCUGGAGUUGGCAA | 0.205
UAACUUUAGAGGAGGAUCUGAUGGAUAUGGCAGUGGACGUGGAUUUGGGGAUGGCUACAAUGGGUAUGGAGGAGGACCUGGAGGUGGCAA | 0.315

Set 4 — technique: protein-binding microarray; molecule type: double-stranded DNA, one strand shown; medium: in vitro; tested at: 250 nM; setting: 60-bp whole probe; added: salmon DNA 0.4 mg/ml; relative to: random background probes; reading: higher = stronger binding; all sequences stand within: GCCTAGCAC … GTCTTGATTCGCTTGACGCTGCTG
Target: Interferon regulatory factor 5, full length, phosphomimetic (IRF5, Homo sapiens, UniProt Q13568-2, residues 1-514, K96S/S451D/S453D/S456D/S462D)
Strand | log fluorescence [z-score]
TTGGATTTCAGTCTCGATTAGTGCTAG | 2.45
TTTTTTTTGGAATGTCTTCCCGTGCTA | 0.692
TTAGGACTGCTTATCCTTCAGTGCTAG | -0.503
TTAGGTATCCTTTTCATTTAGTGCTAG | 1.07
TCACTACTGTATTTGGCACTGTGCTAG | 0.274
TTTTTTATCAATCATTTTAGTGTGCTA | 2.2
GACTGTCTCGGTTTCGGGACGTGCTAG | 3.85
GACGGGTTCCTTATCCTGACGTGCTAG | -0.432
TCAATCGTAAGCAAAAAACTGTGCTAG | 0.633
CTGCTCTGTGCACAGAAGACGTGCTAG | -0.416
GAAGGTTTCGGGTATCGGGACGTGCTA | 7.68
AGAGCTATCACTATTCTAGGGTGCTAG | 1.5
TGGAAACTCGTATGTGACCTTGTGCTA | 0.00948
TCATTTATCCCTGACAGACTGTGCTAG | 0.567
AACCGCCTCTCCCTTAGACGGTGCTAG | -0.321
GACGGTATCGTTATCGGGACGTGCTAG | 3.15
TCAGGTATCGGTCTCGGTTAGTGCTAG | 6.05
